Measured values collected from several papers.
Numbered parts are unrelated; each lists some results of a single study. Several values in a cell are separate wells, animals, samples, runs or records.
Sequence of UniProt P36896 (whole entry, looked up): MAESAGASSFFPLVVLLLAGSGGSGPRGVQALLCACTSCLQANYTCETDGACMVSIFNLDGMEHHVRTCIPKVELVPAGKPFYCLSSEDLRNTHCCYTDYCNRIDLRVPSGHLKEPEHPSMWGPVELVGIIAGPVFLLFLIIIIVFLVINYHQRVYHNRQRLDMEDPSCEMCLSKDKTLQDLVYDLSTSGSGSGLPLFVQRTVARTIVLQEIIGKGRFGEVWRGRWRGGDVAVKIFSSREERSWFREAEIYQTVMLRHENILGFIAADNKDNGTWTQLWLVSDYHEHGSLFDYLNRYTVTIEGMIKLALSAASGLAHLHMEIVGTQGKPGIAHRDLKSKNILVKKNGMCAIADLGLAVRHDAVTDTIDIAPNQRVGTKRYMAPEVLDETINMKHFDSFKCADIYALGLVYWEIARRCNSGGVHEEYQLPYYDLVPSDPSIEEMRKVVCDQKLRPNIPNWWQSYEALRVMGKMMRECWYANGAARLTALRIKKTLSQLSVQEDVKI
Sequence of UniProt P45985 (whole entry, looked up): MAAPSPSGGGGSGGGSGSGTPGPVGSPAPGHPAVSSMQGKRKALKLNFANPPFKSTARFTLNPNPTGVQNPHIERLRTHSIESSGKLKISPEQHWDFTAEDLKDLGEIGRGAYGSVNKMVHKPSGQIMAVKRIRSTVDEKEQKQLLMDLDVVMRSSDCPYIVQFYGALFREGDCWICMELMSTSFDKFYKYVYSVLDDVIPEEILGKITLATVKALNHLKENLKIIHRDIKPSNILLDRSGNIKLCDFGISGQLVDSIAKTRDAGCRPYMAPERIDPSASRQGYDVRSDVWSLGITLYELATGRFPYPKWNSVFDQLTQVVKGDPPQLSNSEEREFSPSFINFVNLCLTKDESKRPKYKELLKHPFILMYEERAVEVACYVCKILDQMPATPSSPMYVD
Sequence of UniProt O15111 (whole entry, looked up): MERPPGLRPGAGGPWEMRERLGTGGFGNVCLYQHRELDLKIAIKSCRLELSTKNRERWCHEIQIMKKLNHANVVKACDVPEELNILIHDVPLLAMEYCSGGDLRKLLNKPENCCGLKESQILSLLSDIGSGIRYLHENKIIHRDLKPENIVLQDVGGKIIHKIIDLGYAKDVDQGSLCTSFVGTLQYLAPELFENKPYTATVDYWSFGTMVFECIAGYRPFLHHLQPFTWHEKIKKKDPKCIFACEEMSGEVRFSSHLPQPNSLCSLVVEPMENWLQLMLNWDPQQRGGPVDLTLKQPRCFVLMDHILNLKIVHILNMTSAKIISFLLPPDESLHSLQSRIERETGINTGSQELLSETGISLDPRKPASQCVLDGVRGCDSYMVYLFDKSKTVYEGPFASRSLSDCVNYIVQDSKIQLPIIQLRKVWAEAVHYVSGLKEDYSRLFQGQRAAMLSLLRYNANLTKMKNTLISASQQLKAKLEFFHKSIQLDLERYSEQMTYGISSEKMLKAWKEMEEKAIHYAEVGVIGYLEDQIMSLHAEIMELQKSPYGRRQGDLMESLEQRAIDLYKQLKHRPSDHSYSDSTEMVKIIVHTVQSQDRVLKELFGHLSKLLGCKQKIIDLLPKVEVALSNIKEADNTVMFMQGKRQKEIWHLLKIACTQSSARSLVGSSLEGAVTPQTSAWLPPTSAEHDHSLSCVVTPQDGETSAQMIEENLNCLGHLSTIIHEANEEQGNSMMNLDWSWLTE
Sequence of UniProt P00519 (whole entry, unmodified, looked up): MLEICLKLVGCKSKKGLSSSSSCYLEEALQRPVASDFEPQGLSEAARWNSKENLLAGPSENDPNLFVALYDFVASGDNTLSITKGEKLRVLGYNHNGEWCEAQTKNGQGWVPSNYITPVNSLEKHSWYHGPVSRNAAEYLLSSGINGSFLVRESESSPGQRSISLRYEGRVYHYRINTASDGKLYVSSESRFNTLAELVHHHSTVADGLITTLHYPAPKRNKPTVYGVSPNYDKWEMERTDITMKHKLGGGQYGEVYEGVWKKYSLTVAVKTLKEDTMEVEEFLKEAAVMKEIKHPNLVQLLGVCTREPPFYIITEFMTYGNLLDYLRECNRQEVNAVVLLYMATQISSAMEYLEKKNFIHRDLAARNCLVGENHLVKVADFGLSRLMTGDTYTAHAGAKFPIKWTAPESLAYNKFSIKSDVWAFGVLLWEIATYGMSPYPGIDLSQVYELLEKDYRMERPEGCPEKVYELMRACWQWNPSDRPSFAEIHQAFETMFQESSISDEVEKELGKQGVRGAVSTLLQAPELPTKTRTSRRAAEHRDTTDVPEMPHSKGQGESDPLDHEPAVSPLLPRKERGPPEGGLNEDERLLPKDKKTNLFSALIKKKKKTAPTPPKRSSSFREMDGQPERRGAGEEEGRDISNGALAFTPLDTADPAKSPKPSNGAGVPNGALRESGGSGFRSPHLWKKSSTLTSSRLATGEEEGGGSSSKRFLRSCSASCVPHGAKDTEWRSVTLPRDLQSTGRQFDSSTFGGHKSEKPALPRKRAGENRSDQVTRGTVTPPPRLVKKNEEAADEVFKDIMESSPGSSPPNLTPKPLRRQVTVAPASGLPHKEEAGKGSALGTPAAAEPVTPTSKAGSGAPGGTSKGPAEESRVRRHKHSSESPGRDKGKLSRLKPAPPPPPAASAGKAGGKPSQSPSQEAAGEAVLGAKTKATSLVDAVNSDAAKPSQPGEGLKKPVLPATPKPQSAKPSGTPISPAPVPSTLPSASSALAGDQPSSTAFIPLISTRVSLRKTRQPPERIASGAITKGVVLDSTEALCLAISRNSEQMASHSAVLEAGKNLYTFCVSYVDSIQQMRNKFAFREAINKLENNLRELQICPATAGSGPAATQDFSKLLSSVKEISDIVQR
Sequence of UniProt P42336 (whole entry, unmodified, looked up): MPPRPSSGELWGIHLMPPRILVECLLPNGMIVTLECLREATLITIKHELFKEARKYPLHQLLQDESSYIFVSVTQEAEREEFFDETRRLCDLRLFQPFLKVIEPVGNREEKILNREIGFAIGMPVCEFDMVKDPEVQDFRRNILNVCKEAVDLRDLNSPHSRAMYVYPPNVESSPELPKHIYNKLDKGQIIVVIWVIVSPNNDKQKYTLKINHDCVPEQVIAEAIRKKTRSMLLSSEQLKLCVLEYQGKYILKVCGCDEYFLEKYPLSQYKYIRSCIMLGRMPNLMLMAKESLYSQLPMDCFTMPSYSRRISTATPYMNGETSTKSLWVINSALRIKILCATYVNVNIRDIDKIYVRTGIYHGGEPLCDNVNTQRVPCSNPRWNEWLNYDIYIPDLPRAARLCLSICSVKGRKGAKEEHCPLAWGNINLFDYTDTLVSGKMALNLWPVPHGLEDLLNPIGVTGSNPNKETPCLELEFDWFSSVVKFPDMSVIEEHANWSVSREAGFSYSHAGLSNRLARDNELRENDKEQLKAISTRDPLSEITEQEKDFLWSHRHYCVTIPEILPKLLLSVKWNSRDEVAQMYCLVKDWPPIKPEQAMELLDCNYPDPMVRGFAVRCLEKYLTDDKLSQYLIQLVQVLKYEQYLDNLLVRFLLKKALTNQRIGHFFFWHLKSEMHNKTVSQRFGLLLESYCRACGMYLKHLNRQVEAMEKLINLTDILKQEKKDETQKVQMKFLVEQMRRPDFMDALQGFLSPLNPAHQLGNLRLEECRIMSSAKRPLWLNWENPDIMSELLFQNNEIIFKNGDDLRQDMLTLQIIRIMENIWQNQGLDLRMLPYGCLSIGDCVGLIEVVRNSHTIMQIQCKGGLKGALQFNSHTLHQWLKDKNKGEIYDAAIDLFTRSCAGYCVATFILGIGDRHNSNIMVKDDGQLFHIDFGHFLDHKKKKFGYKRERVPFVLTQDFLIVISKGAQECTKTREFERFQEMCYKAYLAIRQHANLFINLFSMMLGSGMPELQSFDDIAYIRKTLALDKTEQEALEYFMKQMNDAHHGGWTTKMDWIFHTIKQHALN
Sequence of UniProt Q00532 (whole entry, looked up): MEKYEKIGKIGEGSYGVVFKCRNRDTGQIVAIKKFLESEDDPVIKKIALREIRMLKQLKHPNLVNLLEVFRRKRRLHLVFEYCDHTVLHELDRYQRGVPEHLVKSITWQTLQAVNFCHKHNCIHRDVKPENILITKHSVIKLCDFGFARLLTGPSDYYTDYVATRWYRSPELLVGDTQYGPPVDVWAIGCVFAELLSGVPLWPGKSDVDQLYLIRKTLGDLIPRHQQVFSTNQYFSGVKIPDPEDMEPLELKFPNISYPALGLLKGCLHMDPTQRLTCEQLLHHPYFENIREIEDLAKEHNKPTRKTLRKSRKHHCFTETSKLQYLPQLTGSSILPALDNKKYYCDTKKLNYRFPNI

Study 1
Target: Tyrosine-protein kinase Fes/Fps (FES, Homo sapiens, UniProt P07332)
Sequence of UniProt P07332 (whole entry, looked up): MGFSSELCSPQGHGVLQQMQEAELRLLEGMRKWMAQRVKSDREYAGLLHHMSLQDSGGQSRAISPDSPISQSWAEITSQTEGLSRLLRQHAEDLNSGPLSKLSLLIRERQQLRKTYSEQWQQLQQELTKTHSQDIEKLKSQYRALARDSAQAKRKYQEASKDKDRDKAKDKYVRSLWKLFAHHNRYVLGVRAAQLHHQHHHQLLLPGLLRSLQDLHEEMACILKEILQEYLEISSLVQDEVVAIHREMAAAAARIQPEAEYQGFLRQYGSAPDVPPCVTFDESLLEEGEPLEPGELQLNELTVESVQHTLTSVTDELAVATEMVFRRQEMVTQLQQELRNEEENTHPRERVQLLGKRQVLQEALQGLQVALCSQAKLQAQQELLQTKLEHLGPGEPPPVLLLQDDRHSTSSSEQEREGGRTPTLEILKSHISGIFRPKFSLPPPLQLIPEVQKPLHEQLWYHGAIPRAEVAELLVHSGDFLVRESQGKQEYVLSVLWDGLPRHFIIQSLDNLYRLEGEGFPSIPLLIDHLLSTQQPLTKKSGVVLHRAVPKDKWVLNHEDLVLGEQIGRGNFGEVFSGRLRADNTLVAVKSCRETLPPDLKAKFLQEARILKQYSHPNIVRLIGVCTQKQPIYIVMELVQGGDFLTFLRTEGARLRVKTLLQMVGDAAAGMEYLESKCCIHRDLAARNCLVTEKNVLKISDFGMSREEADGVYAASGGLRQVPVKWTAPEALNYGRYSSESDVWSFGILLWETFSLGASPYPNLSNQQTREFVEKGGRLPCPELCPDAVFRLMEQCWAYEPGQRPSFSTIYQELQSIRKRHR
Observed: enzyme activity
Action: inhibitor
Tested at: 0.5 µM
Baseline: control
Endpoint: remaining activity
O=C1C(Cl)=C(N2C(=O)CCC2=O)C(=O)c2ccccc21: 97.5%
c1ccc(-c2cnc(Nc3ccc(OCCN4CCCC4)cc3)s2)cc1: 93.2%
O=C(Nc1cccc(Nc2nccc(Nc3cccc(C(F)(F)F)c3)n2)c1)C1CC1: 94.3%
O=C(NC(NC(=S)Nc1ccc(F)c([N+](=O)[O-])c1)C(Cl)(Cl)Cl)C(c1ccccc1)c1ccccc1 (stereo not drawn): 104%
C[C@@H]1CCN(C(=O)CC#N)C[C@@H]1N(C)c1ncnc2[nH]ccc12: 104%
COc1cc2ncnc(Nc3cccc(Cl)c3)c2cc1OC: 104%
Cc1cc2ncc(-c3ccccc3)nc2cc1C: 97.3%
CCOc1nc(NC(=O)Cc2cc(OC)ccc2OC)cc(N)c1C#N: 91%
Ic1cccc(CSc2nnc(-c3ccncc3)o2)c1: 98%
COc1cc2c(cc1OC)-c1[nH]nc(Nc3cccc(F)c3)c1C2: 95.6%
Cc1nc2cc3nc(-c4cccs4)cnc3cc2n1C: 106%
Cc1cn(-c2cc(NC(=O)c3ccc(C)c(Nc4nccc(-c5cccnc5)n4)c3)cc(C(F)(F)F)c2)cn1: 95.9%
CN([C@@H](Cc1ccc(OS(=O)(=O)c2cccc3cnccc23)cc1)C(=O)N1CCN(c2ccccc2)CC1)S(=O)(=O)c1cccc2cnccc12: 97.7%
COc1cc2ncnc(Nc3ccc(O)c(Br)c3)c2cc1OC: 94.9%
c1ccc(-c2[nH]ncc2-c2ccnc3ccccc23)nc1: 111%
CN(C)C[C@H]1CCn2c(c(C3=C(c4cn(C)c5ccccc45)C(=O)NC3=O)c3ccccc32)C1: 102%
N#C/C(=C\c1ccc(O)c(O)c1)C(=O)NCc1ccccc1: 101%
Cn1nc2c3c(cccc31)C(=O)c1ccccc1-2: 94.4%
Nc1cccc(-c2cc3c(Oc4cccc(O)c4)ncnc3[nH]2)c1: 73.8%
N#Cc1c(NC(=O)c2cccc3ccccc23)sc2c1CCCC2: 102%
CCN(CC)C(=O)c1ccc(Nc2nc(OCC3CCCCC3)c3[nH]cnc3n2)cc1: 63.2%
O=C1c2ccccc2-c2n[nH]c3cccc1c23: 64.3%
CCN(CC)CCNC(=O)c1c(C)[nH]c(/C=C2\C(=O)Nc3ccc(Cl)cc32)c1C: 22.1%

Study 2
SMILES: CC(C)n1cnc(-c2ccc(F)cc2)c1-c1ncc(C(=O)Nc2ccc(N3CCN(C)CC3)cc2)[nH]1
Method: phase 2a clinical trial
Species: patients with idiopathic pulmonary fibrosis
Endpoint: patients with treatment-emergent adverse events
measured: drug-induced liver injury; dose not given, Grade 1, all drug arms total: 0%
measured: benign prostatic hyperplasia; 30 mg once daily, Grade 5, maximum intensity: 0%
measured: interstitial lung disease; 30 mg once daily, Grade 1: 0%
measured: electrocardiogram QT prolonged; dose not given, Grade 2, all drug arms total: 0%
measured: lumbar vertebral fracture; 60 mg once daily, Grade 5, maximum intensity: 0%
measured: hepatic function abnormal; dose not given, Grade 5, all drug arms total: 0%
measured: left ventricular dysfunction; dose not given, Grade 2, all drug arms: 0%
measured: lumbar vertebral fracture; dose not given, Grade 4, maximum intensity, all drug arms total: 0%
measured: C-reactive protein increased; dose not given, Grade 5, all drug arms total: 0%

Study 3
Compound: CCc1ccccc1C(=O)Nc1n[nH]c2c(C)c(F)c(C3C(C#N)=C(C)N(C)C(C)=C3C#N)cc12
Method: competition with immobilised ligand
Tested at: 1 µM
Endpoint: remaining binding
RAC-beta serine/threonine-protein kinase (AKT2, Homo sapiens, UniProt P31751); cell-free assay: 95%
Phosphatidylinositol 4,5-bisphosphate 3-kinase catalytic subunit alpha isoform (PIK3CA, Homo sapiens, UniProt P42336, Q546K); cell-free assay: 39%
Serine/threonine-protein kinase 36 (STK36, Homo sapiens, UniProt Q9NRP7); cell-free assay: 100%
Epidermal growth factor receptor (EGFR, Homo sapiens, UniProt P00533, del746-750); cell-free assay: 62%
Serine/threonine-protein kinase SBK1 (SBK1, Homo sapiens, UniProt Q52WX2); cell-free assay: 100%
Mitogen-activated protein kinase kinase kinase 19 (MAP3K19, Homo sapiens, UniProt Q56UN5); cell-free assay: 74%
Epidermal growth factor receptor (EGFR, Homo sapiens, UniProt P00533, del747-750/T751S); cell-free assay: 29%
Cyclin-dependent kinase-like 1 (CDKL1, Homo sapiens, UniProt Q00532); binding: 87%
Dual specificity mitogen-activated protein kinase kinase 4 (MAP2K4, Homo sapiens, UniProt P45985); cell-free assay: 100%
Hepatocyte growth factor receptor (MET, Homo sapiens, UniProt P08581, Y1235D); cell-free assay: 16%
Maternal embryonic leucine zipper kinase (MELK, Homo sapiens, UniProt Q14680); cell-free assay: 43%
Inhibitor of nuclear factor kappa-B kinase subunit alpha (CHUK, Homo sapiens, UniProt O15111); cell-free assay: 87%
Tyrosine-protein kinase ABL1, non-phosphorylated (ABL1, Homo sapiens, UniProt P00519, F317L); cell-free assay: 100%
Mitogen-activated protein kinase kinase kinase 4 (MAP3K4, Homo sapiens, UniProt Q9Y6R4); cell-free assay: 72%
Serine/threonine-protein kinase 10 (STK10, Homo sapiens, UniProt O94804); cell-free assay: 100%
Activin receptor type-1B (ACVR1B, Homo sapiens, UniProt P36896); cell-free assay: 100%
Dual specificity tyrosine-phosphorylation-regulated kinase 1B (DYRK1B, Homo sapiens, UniProt Q9Y463); cell-free assay: 100%
Serine/threonine-protein kinase PLK1 (PLK1, Homo sapiens, UniProt P53350); cell-free assay: 100%

Single results of other studies
COc1ccc(-c2c(Nc3ccccn3)[nH]c3c(C4=CCCCC4)c(-c4ccccc4)nn3c2=O)cc1
Cmin (LC-MS/MS; human, plasma; oral, 50 mg once daily): 1090 ng/mL and 1160 ng/mL and 858 ng/mL

For quick reference, copied from above (study 3):
Dual specificity mitogen-activated protein kinase kinase 4 (MAP2K4, Homo sapiens, UniProt P45985); cell-free assay: 100%
Dual specificity tyrosine-phosphorylation-regulated kinase 1B (DYRK1B, Homo sapiens, UniProt Q9Y463); cell-free assay: 100%
Serine/threonine-protein kinase SBK1 (SBK1, Homo sapiens, UniProt Q52WX2); cell-free assay: 100%
Phosphatidylinositol 4,5-bisphosphate 3-kinase catalytic subunit alpha isoform (PIK3CA, Homo sapiens, UniProt P42336, Q546K); cell-free assay: 39%
